# Results collected from several papers.
# Each numbered part is a random draw from the data of one study; scales do not carry over between parts.

# Set 1 — technique: protein binding microarray; form: double-stranded DNA, one strand shown; medium: in vitro; concentration: not given; baseline: not given; direction: higher = stronger binding
# Target: Histone acetyltransferase KAT6A, winged helix 2, GST fusion (KAT6A, Homo sapiens, UniProt Q92794, residues 85-181)
# Setting: 8-mer, flanks averaged, mean of 2 arrays, mostly near background
# Construct (chain): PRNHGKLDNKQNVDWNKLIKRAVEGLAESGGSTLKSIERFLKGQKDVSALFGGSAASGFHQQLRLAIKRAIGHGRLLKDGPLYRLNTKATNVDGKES
Strand,E-score
GGGTGTTA,-0.0741
GGACACAC,0.0243
ACACCAAC,-0.182
CGCGACGA,0.178
GCATAACA,-0.0658
GCGTCGTA,0.0377
AGCCATCG,-0.0571
AACGCGCT,0.00942
CCCGCAGC,0.126
CGGCGAGA,0.135
AGTCATCC,-0.189
GTCTCCAC,0.0415
GAATACGC,-0.14
TCCGCCGA,0.274
AACACGTA,-0.0498
CTCGGATA,-0.017
ATTTAACA,0.00547

# Set 2 — technique: RNA Bind-n-Seq; form: RNA; medium: in vitro; concentration: 365 nM; baseline: no-protein control; direction: higher = stronger binding
# Target: RNA binding protein fox-1 homolog 2, RRM domain, GST-SBP tag (RBFOX2, Homo sapiens, UniProt O43251-10, residues 100-194)
# Setting: natural RNA segment, single round, ends assumed
Strand,RBNS enrichment (R)
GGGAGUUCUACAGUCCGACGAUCAAGUGUGGGCUUUUGUUUCUUACAUUCCUCUGCAAUGGCCUGGCUGGCCUGGUGACCUCUAGGACCAAAGUCUUCCUGGAGCUGACCUCUAUGGUGUGGAGUGGUGGCAGUGGAAUUCUCGGGUGCCAA,0.367
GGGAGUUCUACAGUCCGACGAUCAUCAAGCUGUUGGGAGAAAUGGGAGGGCAGGGGAAAGAUGUAAAGCCAAAGUACAGCAGGAACCCACCACCUGUUUCCCUUCCUUCUCCCAUUCUACUCCCAGUCCGGAAUGGAAUUCUCGGGUGCCAA,0.398
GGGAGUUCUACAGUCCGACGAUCAUCUGAUCAGUUACUUUAAAAAAUGACUUCUUAUUUUUUAAAUGUUUCCACAUUUUUUGCUUGUGGAAAGACUGUUUUCAUAUGUUCUACUUGGAUAAAGAAUUUAAAUGUGGAAUUCUCGGGUGCCAA,0.391
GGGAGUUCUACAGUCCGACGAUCAGUGUAUUCUGAUGUCUUAAGUGGUCAGAAAAGAGCACUAAGAAAUGGAUCUAUAUAACCAAUGAGUUGAUUCUCUUAAAAAAAUAAUAAACCCCCCUCUAUUAUGUGGGUGGAAUUCUCGGGUGCCAA,0.492
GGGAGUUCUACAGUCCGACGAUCCUUUUAUUUCAUGUAAACUGCCCCUCUGAGGAUUUGGGCAUAUUUUUUGGAAGGUGCCUAAUGCUUAGGAUAGUCUCUAGGGUGAUGCACUGCACCUGCUUCCUUCCCUUUGGAAUUCUCGGGUGCCAA,0.743
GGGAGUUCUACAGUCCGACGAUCGAGAUGCUACCAAGUCUUGGAUGUUAGGGCGAGACCCUGCAAGUUGAGUAUUAGAGAGCUUGUCUUUCAAGGCAGGUUCCUGGGGCUUCAGGGCUAGGAGGGAGGAGCCUUGGAAUUCUCGGGUGCCAA,0.736
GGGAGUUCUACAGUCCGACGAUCCCCAGAGGGCCUGCCUGGUGCCAAGGUAUCCCAGCCUGGACAGGCAUGGACCUGUCUCCAGAGAGAGGAGCCUGAAGUUCGUGGGGCGGGACAGCGUCGGCCUGAUUUCCUGGAAUUCUCGGGUGCCAA,0.442
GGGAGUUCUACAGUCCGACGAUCACUGUGUCAAAAGCUGUGAGCAGCAAAAUAUAAUCCAUAUGACCUUUUCUCUUGCACUUCACUUGUAUGUUUUACUGUGGUGGAAAAAAUACUUCAACUGAUUAUCACACUGGAAUUCUCGGGUGCCAA,0.589
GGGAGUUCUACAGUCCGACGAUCGGAAGAAAGCAAAUGUGUAAAACAGUAGACGUGUGACGUUUAUGAGUAAUGCUGGCUCUGAACAAACUUUUGAAAACUUAGUUGACAGUGUUUUGAGUCAACUGAAAAAAUGGAAUUCUCGGGUGCCAA,0.799
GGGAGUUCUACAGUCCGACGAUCGGUCCUGGUUUCCAAUUUGGGUUCUGCUGUGUGACUCUGGGCAAGUCACUCUCCCUCUCUGGGCAUGUCUGCUACAAAUGGACAAGAUUAUUUCAGAGGUCACUGAAGACUGGAAUUCUCGGGUGCCAA,1.48
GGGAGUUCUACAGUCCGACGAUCUUGGAGAGCAAGGAAUGUGGACUUGUAUGGCUUUGAACCAAGAGAGGGUUAUGAGCCUACUGGAUUGAGGUUAAAAUCCAAGAACCAACAUUUAGAGCUUUGUGCUUUUCUGGAAUUCUCGGGUGCCAA,0.63
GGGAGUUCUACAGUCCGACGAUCUAUGGCUGGUCCUCCUUCUUGCUCACUGACCCCUCUCCAGGACACUGUCCCUGAAGCCUUCGCAUCUCAGCUCUUCACCCCUGGGAGGCAGCUGAUCGCCCUGCGUGCUGUGGAAUUCUCGGGUGCCAA,1

# Set 3 — technique: universal PBM; form: double-stranded DNA, one strand shown; medium: in vitro; concentration: 600 nM; direction: higher = stronger binding
# Target: Sal-like protein 4, full length isoform A (SALL4, Homo sapiens, UniProt Q9UJQ4, residues 1-1053)
# UniProt Q9UJQ4, sequence (whole entry, looked up): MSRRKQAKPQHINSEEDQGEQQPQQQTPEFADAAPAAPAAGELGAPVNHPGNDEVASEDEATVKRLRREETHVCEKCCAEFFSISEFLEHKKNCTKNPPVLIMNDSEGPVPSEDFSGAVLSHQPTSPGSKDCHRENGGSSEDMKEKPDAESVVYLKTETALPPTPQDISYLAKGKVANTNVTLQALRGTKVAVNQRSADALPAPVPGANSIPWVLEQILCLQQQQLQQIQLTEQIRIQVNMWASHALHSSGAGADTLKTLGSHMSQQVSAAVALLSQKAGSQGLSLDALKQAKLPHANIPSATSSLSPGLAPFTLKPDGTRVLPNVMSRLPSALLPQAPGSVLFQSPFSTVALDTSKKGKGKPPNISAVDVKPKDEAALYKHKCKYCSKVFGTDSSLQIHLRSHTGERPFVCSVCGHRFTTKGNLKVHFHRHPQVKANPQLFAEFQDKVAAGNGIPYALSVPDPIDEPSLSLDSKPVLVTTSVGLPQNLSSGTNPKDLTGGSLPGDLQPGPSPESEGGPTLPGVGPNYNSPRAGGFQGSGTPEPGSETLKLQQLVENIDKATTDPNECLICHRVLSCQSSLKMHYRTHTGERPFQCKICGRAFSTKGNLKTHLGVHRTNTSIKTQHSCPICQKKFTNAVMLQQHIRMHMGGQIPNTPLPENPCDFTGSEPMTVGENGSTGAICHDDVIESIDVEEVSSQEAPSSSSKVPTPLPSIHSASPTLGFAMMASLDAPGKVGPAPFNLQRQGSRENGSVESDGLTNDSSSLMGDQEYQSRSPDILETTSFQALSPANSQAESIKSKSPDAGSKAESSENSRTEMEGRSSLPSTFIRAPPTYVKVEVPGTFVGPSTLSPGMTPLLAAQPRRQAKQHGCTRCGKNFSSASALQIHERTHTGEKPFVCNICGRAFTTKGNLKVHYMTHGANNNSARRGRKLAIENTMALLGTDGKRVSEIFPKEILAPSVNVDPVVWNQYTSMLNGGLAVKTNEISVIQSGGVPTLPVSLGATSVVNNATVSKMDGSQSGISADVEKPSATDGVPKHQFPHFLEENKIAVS
# Setting: 8-mer, flanks averaged, mean of replicates
Strand,E-score
ACGCAGTA,-0.0356
AGGAGGTG,-0.225
ACGTGCTC,-0.224
ACGATGAG,0.11
CCAGTCAC,-0.169
GACATAGA,0.137
AGATAGGG,-0.12
CACAAAAA,0.22
CACTCGTC,-0.0804
ATCTACAC,0.0969
GAGGACCC,-0.332
GAGATTCA,0.000515
CCTGTACG,-0.141
AGCATCCC,-0.198
CCCCTCGG,-0.355
ATTTGCGG,0.145
GTAGTTAA,0.14
GAAGTGGC,-0.157
ATTTGGAC,0.13
AGCTGTGG,-0.221
GACATCAC,0.0136
CTTTCAAA,0.292
CAAAGGTC,-0.264

# Set 4 — technique: protein-binding microarray; form: double-stranded DNA, one strand shown; medium: in vitro; concentration: 2540 nM top; setting: 60-bp whole probe; added: salmon DNA 0.4 mg/ml; baseline: random background probes; direction: higher = stronger binding; constant ends, left off below: GCCTAGCAC … GTCTTGATTCGCTTGACGCTGCTG
# Target: Interferon regulatory factor 3, full length, phosphomimetic (IRF3, Homo sapiens, UniProt Q14653, residues 1-427, S386D/S396D/S398D/S402D/T404D/S405D)
# UniProt Q14653, sequence (whole entry, unmodified, looked up): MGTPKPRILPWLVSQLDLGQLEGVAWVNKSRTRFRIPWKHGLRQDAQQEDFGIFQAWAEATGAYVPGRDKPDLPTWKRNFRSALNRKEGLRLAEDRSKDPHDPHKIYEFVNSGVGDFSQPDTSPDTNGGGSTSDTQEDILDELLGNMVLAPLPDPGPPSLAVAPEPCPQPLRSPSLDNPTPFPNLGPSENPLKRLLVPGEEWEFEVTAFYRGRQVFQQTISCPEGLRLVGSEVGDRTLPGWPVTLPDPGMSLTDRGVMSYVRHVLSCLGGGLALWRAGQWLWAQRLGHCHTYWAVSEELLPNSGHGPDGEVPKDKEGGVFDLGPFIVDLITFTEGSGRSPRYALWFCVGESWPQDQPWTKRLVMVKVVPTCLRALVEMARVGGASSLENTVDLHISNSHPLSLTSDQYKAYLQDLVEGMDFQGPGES
Strand,fitted relative affinity
TTAGATCTCTGTATCGATTAGTGCTAG,0.63 z-score
GCAAGAGGAAAGGAACATCAGTGCTAG,0.0668 z-score
TTAGACTCCAGTTTCGATTAGTGCTAG,3.1 z-score
GACGGAGTGCTACTGCTGACGTGCTAG,-0.913 z-score
GACGATTTAAGTTTCGAGACGTGCTAG,2.34 z-score
TTGGGTTTCGACTTTCGGTTAGTGCTA,2.94 z-score
TTCGGACTGCTTTTCCTTTAGTGCTAG,0.83 z-score
GGCGGACTGGGTCTCGGGACGTGCTAG,-1.28 z-score
GACGATATCACACTGGAGACGTGCTAG,0.443 z-score
TTGGATCTCAGTCTCGATTAGTGCTAG,0.173 z-score
TTAGAACTGCTTATCCTTTAGTGCTAG,-0.102 z-score
CATCGTAAGCAAAAATGATTGTGCTAG,-0.00449 z-score
TCAACTCTTCCTTTACTACTGTGCTAG,0.866 z-score
TTAGGTTTCGGTCTCCGTTAGTGCTAG,8.57 z-score
TTAGGACTGGGGAATCGGTTAGTGCTA,-0.794 z-score
TCATCTCTCTGTGACACACTGTGCTAG,1.26 z-score
GCTTCCTCACCTGATGCCTCGTGCTAG,0.5 z-score
TCATCTCCCAGACTGGAACTGTGCTAG,0.92 z-score
TTTTTTTTTTCCCTGAAAAAGTGCTAG,2.66 z-score
GACGATATCGGGTATCGACACGTGCTA,0.342 z-score
TTCTATATTTGCTTCAGGTTGTGCTAG,0.801 z-score
TTAGGACTGGACTATCGGTCAGTGCTA,-0.555 z-score
TTCGAACTGGGGACTGGATTAGTGCTA,-0.476 z-score
TTAGGGCTCCTACTGCTTTAGTGCTAG,-0.31 z-score
TTAGGACTGGAGACTGGGTTAGTGCTA,-0.908 z-score

# Further values, each from its own experiment
Molecule,target,assay,system,setting,scale,measurement,result
"PhoQ, residues 284 288 289 292 302 303 NLSRDF","PhoP, residues 12 14 15 18 19 QYFSL (Escherichia coli, UniProt P23836)","Sort-seq, item: YFP reporter",E. coli,"PhoQ-PhoP variant library, added: 10 µM Mg2+","baseline: high Mg2+ state, higher = stronger signaling",fold induction,3.41
